{"data": "Measured values from different studies", "note": "Parts stem from different laboratories: compare values within a part only. Substitutions count along the parent as printed."}
{"data": "Study 1", "target": "Interferon regulatory factor 5, full length, phosphomimetic (IRF5, Homo sapiens, UniProt Q13568-2, residues 1-514, S451D/S453D/S456D/S462D)", "technique": "protein-binding microarray", "molecule type": "double-stranded DNA, one strand shown", "matrix": "in vitro", "tested at": "940 nM top", "notes": "60-bp whole probe", "with": "salmon DNA 0.4 mg/ml", "relative to": "random background probes", "direction": "higher = stronger binding", "shared flanks, not repeated": "GCCTAGCAC … GTCTTGATTCGCTTGACGCTGCTG"}
{"Oligonucleotide": "TTAGATTTCGGGTATTGATTAGTGCTA", "fitted relative affinity": "1.55 z-score"}
{"Oligonucleotide": "TTAGGTATTCTACTGCTTTAGTGCTAG", "fitted relative affinity": "0.21 z-score"}
{"Oligonucleotide": "TCAGTTTTCTTTTCCATTTTGTGCTAG", "fitted relative affinity": "2.29 z-score"}
{"Oligonucleotide": "CTTTTTAGAAATTTCTTTCTGTGCTAG", "fitted relative affinity": "0.482 z-score"}
{"Oligonucleotide": "TCTATAATGGATATATATCAGTGCTAG", "fitted relative affinity": "0.0283 z-score"}
{"Oligonucleotide": "TCAGGTTCCGGTTTCGGTTAGTGCTAG", "fitted relative affinity": "9.77 z-score"}
{"Oligonucleotide": "TGGTTTTTACTTTCTGAATGGTGCTAG", "fitted relative affinity": "2.34 z-score"}
{"Oligonucleotide": "TTAGGTTTCGGGACTTGGTTAGTGCTA", "fitted relative affinity": "7.38 z-score"}
{"data": "Study 2", "target": "Centromere-binding protein 1, full length, N-terminal tag (CBF1, Saccharomyces cerevisiae, UniProt P17106, residues 1-351)", "technique": "protein-binding microarray", "molecule type": "double-stranded DNA, one strand shown", "matrix": "in vitro", "tested at": "0.8 µM", "notes": "whole 60-bp probe, no competitor", "direction": "higher = stronger binding", "chain of UniProt P17106 (whole entry, looked up)": "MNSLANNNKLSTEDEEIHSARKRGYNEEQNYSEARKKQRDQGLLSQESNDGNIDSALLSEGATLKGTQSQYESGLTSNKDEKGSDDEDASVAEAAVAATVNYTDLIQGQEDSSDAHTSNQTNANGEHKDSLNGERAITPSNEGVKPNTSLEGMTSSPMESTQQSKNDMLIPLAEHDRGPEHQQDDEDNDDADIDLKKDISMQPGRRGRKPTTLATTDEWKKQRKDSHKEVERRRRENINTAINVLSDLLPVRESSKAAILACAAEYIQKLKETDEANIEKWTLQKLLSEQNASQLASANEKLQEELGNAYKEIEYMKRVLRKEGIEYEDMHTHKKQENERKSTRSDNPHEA"}
{"Oligonucleotide": "GAAACAAGGCTTTTAAACGTGATTGTGTTGTATTAGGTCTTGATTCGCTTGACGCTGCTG", "fluorescence intensity [a.u.]": 701}
{"Oligonucleotide": "GAATGCTACCCAATTCACGTTGTCCATGGTTATTAGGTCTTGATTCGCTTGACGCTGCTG", "fluorescence intensity [a.u.]": 721}
{"Oligonucleotide": "CTACTGAAGATTCGAAACGTGTTTCTAAAACCATTCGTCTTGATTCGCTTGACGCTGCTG", "fluorescence intensity [a.u.]": 599}
{"Oligonucleotide": "CTACTTTTTCACGGTGACGCCATTTTGCGCGGCTTCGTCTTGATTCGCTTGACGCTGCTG", "fluorescence intensity [a.u.]": 571}
{"Oligonucleotide": "CTAAACTTTTCAAATCACGGATCATTTTTCATTTTCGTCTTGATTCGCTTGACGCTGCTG", "fluorescence intensity [a.u.]": 680}
{"Oligonucleotide": "CTATCATTTGAATAGTACATGATGCAATAGAAGTTCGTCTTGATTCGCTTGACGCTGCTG", "fluorescence intensity [a.u.]": 597}
{"Oligonucleotide": "GAAAATCGAAGTGCCCACGTGCTGCTCATTCTCTAGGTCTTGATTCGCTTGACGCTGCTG", "fluorescence intensity [a.u.]": 6040}
{"Oligonucleotide": "GAAAGGCCTGTGCAGCACGTGACCCACGCTTGGTAGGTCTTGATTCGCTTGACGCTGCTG", "fluorescence intensity [a.u.]": 24200}
{"data": "Study 3", "target": "Runt-related transcription factor 3, Runt domain (RUNX3, Homo sapiens, UniProt Q13761, residues 53-186)", "technique": "protein-binding microarray", "molecule type": "hairpin DNA", "matrix": "in vitro", "tested at": "not given", "notes": "whole hairpin DNA, median over replicate spots", "relative to": "not given", "direction": "higher = stronger binding", "chain of UniProt Q13761 (53-186, looked up)": "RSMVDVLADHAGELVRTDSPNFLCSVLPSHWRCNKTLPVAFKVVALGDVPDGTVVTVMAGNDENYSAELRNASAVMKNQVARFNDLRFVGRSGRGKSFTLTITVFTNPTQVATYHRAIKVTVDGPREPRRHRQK"}
{"Oligonucleotide": "GAGGCCTGTTGCGCTTGGCCTCCTGGCCAAGCGCAACAGGCCTCACACTC (5mC at 14)", "median fluorescence [a.u.]": 4800}
{"Oligonucleotide": "CTCAGTTCTGTGGGCGGGACTCCTGTCCCGCCCACAGAACTGAGACACTC (5mC at 15 29)", "median fluorescence [a.u.]": 4450}
{"Oligonucleotide": "GAGGCCTCTCGCGGTTGGCCTCCTGGCCAACCGCGAGAGGCCTCACACTC (5mC at 8)", "median fluorescence [a.u.]": 5800}
{"Oligonucleotide": "GAGGCCTGTCGGGGTTGGCCTCCTGGCCAACCCCGACAGGCCTCACACTC", "median fluorescence [a.u.]": 5540}
{"Oligonucleotide": "GAGGCCTGTCGCAGTTGGCCTCCTGGCCAACTGCGACAGGCCTCACACTC", "median fluorescence [a.u.]": 4970}
{"Oligonucleotide": "GAGGCCCTACCGCAACAGCCTCCTGGCTGTTGCGGTAGGGCCTCACACTC", "median fluorescence [a.u.]": 5880}
{"Oligonucleotide": "GAGGCCTGATGCGGTTGGCCTCCTGGCCAACCGCATCAGGCCTCACACTC", "median fluorescence [a.u.]": 5970}
{"Oligonucleotide": "GAGGCCTGTCGCGGTTGGCCTCCTGGCCAACCGCGACAGGCCTCACACTC (5mC at 12 32 34)", "median fluorescence [a.u.]": 4910}
{"data": "Further values, each from its own experiment", "starting sequence": "viral docking peptide; PGASRRLFGSSAD; partner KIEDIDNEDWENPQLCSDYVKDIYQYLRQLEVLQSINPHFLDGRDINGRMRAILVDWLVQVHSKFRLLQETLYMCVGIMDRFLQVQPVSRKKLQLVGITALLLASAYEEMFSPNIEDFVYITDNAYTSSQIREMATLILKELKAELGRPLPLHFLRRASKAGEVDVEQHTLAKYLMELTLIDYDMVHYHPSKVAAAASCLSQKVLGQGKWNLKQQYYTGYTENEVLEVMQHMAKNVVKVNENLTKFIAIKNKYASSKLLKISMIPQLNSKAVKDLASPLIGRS"}
{"Substitution": "PGASRRLLGSSAD [F8L]", "target": "CCNB2, cyclin fold, Cln2 fusion (human)", "assay": "yeast growth competition, sequencing", "test system": "yeast", "setting": "weak parent motif", "scale": "relative to: not given, higher = stronger binding", "measurement": "normalised enrichment score", "result": 0.648}
{"note": "For quick reference, copied from above (study 1):"}
{"Oligonucleotide": "TCAGTTTTCTTTTCCATTTTGTGCTAG", "fitted relative affinity": "2.29 z-score"}
{"Oligonucleotide": "TTAGGTTTCGGGACTTGGTTAGTGCTA", "fitted relative affinity": "7.38 z-score"}
{"Oligonucleotide": "TTAGATTTCGGGTATTGATTAGTGCTA", "fitted relative affinity": "1.55 z-score"}
{"Oligonucleotide": "TCAGGTTCCGGTTTCGGTTAGTGCTAG", "fitted relative affinity": "9.77 z-score"}
